Published values of several laboratories.
Each line is one published result; not all experiments were run side by side. ± gives the spread as reported.
MAP2K1: Dual specificity mitogen-activated protein kinase kinase 1 (MAP2K1, Homo sapiens, UniProt Q02750)

COc1cc(-c2cncc3c2CN(C)Cc2cc(N4CCNCC4)ccc2-3)cc(OC)c1OC — remaining activity (MAP2K1; kinase activity; 1 µM, human enzyme, added: ATP 10 µM; reference: DMSO control): 88%
[2H]c1cc(C)c(NC(=O)c2cnc(Nc3cc(N4CCCCC4)nc(C)n3)s2)c(Cl)c1 — inhibition (MAP2K1; 0.01 µM): < 30%
C=CC(=O)N1CCC[C@@H](n2nc(-c3ccc(Oc4ccccc4)cc3)c3c(N)ncnc32)C1 — remaining activity (MAP2K1; kinase activity, inhibitor, HotSpot radiometric; 100 nM, added: ATP 10 µM): 88.9 ± 0.8%
c1cnc2ccc(Nc3nc(NC4CC4)c4nc[nH]c4n3)cc2c1 — remaining activity (MAP2K1; kinase activity, inhibitor, SelectScreen kinase profiling; 1 µM; reference: control): 74%
Cc1cc(Nc2cc(N3CCN(C)CC3)nc(Sc3ccc(NC(=O)C4CC4)cc3)n2)[nH]n1 — remaining activity (MAP2K1; kinase activity, KinaseProfiler; 0.03 µM, species human; reference: control): 103%
COc1cc(F)ccc1-c1ncnc(Nc2cccc(C[S@](C)(=N)=O)c2)n1 — remaining activity (MAP2K1; kinase activity; 10 µM, added: 10 µM ATP): 118%
CC[C@@H]1[C@H](F)C(=O)N[C@@H]1COc1nccc2cc(C(N)=O)c(OC)cc12 — inhibition (MAP2K1; ATP-site probe binding, ActivX profiling; THP-1 cell lysate; 0.04 mM, Lys2 site): 5.6%
CC/C(=N\NC(=O)NCc1cccc(O)c1)c1ccc(O)c(C)c1O — inhibition (MAP2K1; kinase activity; 0.1 µM): 2.9%
COc1ccc(F)cc1C(=O)NCc1ccc(-c2nn([C@@H](C)C(F)(F)F)c(N)c2C(N)=O)cc1 — remaining activity (MAP2K1; kinase activity, inhibitor, HotSpot radiometric; 100 nM, added: ATP 10 µM): 69.6 ± 0.2%
CNc1ncc2c(/C=C/C(=O)N3CCC(OC)CC3)nn(Cc3cccc(C(F)(F)F)c3)c2n1 — remaining activity (MAP2K1; kinase activity, inhibitor; 1 µM; reference: untreated control): 95%
O=C1NC(=O)/C(=C/c2ccc(-c3ccc(F)cc3O)o2)S1 — remaining activity (MAP2K1; enzyme activity; 10 µM): 70%
CC#CC(=O)N1CCC[C@H]1c1nc(-c2ccc(C(=O)Nc3ccccn3)cc2)c2c(N)nccn12 — remaining activity (MAP2K1; kinase activity, inhibitor, HotSpot radiometric; 100 nM, added: ATP 10 µM): 97.7 ± 2.4%
C=CC(=O)N1CCC(COCC(=O)N2CCN(c3nc(-c4cnc(N)nc4C(F)F)nc(N4CCOC[C@@H]4C)n3)CC2)CC1 — remaining binding (MAP2K1; KINOMEscan; 1 µM): 99%
CNS(=O)(=O)Nc1nccc(Cc2c(C)c3ccc(Oc4ncccn4)cc3oc2=O)c1F — inhibition (MAP2K1 (Homo sapiens, UniProt Q02750, S218E/S222E); ERK2 activation, inhibitor, IMAP FP; concentration not given): inhibited
